Assay results gathered from unrelated publications.
Protocols differ between the studies behind these lines. Numbers after ± are the reported error.

The radiochemical purity of CCC(C)N(C)C(=O)c1nc(-c2cccc(C(F)(F)[18F])c2)c2ccccc2n1 (centres unmarked) is reported as greater than 99% (normal saline; 6 h, 37 °C).
CC(C)C[C@@H]1NC(=O)[C@@H]2CCCN2C(=O)[C@H](CO)NC(=O)[C@@H](NC(=O)[C@H](Cc2c[nH]cn2)NC(=O)[C@H](CO)NC(=O)[C@H](Cc2ccc(O)cc2)NC(=O)[C@H](CC(=O)O)NC(=O)CNC(=O)CN2CCN(CC(=O)O)CCN(CC(=O)O)CCN(CC(=O)O)CC2)CSSC[C@@H](C(=O)N[C@H](C(=O)N[C@@H](Cc2ccc(O)cc2)C(=O)N2CCC[C@H]2C(=O)N[C@@H](CC(=O)O)C(=O)N2CCC[C@H]2C(=O)N[C@@H](CCC(=O)O)C(=O)NCC(=O)NCC(=O)NCC(N)=O)[C@@H](C)O)NC(=O)[C@H](CCCCN)NC(=O)[C@H](Cc2c[nH]c3ccccc23)NC(=O)[C@H](Cc2c[nH]c3ccccc23)NC(=O)[C@@H]2CCCN2C(=O)[C@H](Cc2ccc(O)cc2)NC(=O)[C@H](Cc2ccc(O)cc2)NC(=O)[C@H](CCCNC(=N)N)NC1=O [gallium-68 labelled] gave a radiochemical purity of 91.2 ± 2.5% (radio-HPLC; 5% fetal bovine serum; 1 h, room temperature).
For C[C@]12CC[C@@H]3c4ccc(OCC(=O)N[C@@H](CCCCNC(=O)CN5CCN(CC(=O)[O-])CCN(CC(=O)[O-])CCN(CC(=O)[O-])CC5)C(=O)O)cc4CC[C@H]3[C@@H]1CCC2=O.[68Ga+3], “radiochemical stability duration” read no less than 4 h (radio-HPLC; room temperature).
For COc1cc2c(cc1OC)CN(CCCCn1ccc3cc(OCC[18F])ccc31)C2, the radiochemical purity was greater than 99% (saline; 2 h, ambient).
Under “radiochemical stability time”, CCN(CC)c1ccc2c(-c3ccc(S(=O)(=O)NCCNC(=O)CN4CCN(CC(=O)[O-])CCN(CC(=O)O)CCN(CC(=O)[O-])CC4)cc3S(=O)(=O)[O-])c3ccc(=[N+](CC)CC)cc-3oc2c1.[64Cu+2] is recorded as greater than 8 h (after HPLC purification).
With O=C(NCC1OC2CCC=CCCC2O1)c1ccc(COCCOCCOCC[18F])cc1 (centres unmarked) the radiochemical purity was 94% (PBS; 2 h, 37 °C).
For O=C([O-])CN1CCN(CC(=O)[O-])CCN(CC(=O)NC[C@H]2CC[C@H](C(=O)N[C@H](Cc3cnc4ccccc4c3)C(=O)NCCCC[C@H](NC(=O)N[C@@H](CCC(=O)O)C(=O)O)C(=O)O)CC2)CCN(CC(=O)[O-])CC1.[64Cu+2], the radiochemical purity was greater than 95% (radio-HPLC; 5% BSA; 24 h, 37 °C).
C[C@H]1C[C@@H](Oc2cccc(F)n2)CCN1Cc1cnc(N[11C](C)=O)s1 has a radiochemical stability of greater than 97% (HPLC; formulation; 2 h, room temperature).

Some of these lines once more:
The radiochemical purity of CCC(C)N(C)C(=O)c1nc(-c2cccc(C(F)(F)[18F])c2)c2ccccc2n1 (centres unmarked) is reported as greater than 99% (normal saline; 6 h, 37 °C).
